{"data": "Assay results from different studies", "SLC6A4": "Sodium-dependent serotonin transporter (SLC6A4, Homo sapiens, UniProt P31645)", "note": "Protocols differ between the studies behind these lines.", "chain of UniProt P31645 (whole entry, unmodified, looked up)": "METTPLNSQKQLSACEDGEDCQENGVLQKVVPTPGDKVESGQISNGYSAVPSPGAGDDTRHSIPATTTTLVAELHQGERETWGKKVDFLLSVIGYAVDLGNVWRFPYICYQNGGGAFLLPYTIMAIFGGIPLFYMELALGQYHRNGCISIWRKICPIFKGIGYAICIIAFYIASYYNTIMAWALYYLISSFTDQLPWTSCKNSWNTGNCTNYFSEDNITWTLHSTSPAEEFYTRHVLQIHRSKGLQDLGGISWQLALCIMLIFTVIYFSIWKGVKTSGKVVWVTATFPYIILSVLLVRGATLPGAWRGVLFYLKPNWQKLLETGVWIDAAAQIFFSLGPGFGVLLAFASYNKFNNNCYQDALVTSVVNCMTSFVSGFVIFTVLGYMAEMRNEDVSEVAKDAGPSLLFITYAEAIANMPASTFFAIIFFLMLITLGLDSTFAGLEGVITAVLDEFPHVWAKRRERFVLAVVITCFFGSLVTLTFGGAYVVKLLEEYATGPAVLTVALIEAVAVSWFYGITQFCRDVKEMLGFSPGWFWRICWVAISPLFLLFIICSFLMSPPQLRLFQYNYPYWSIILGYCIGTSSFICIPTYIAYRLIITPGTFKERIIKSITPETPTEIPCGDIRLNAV"}
{"Compound": "CCCC(NC)C(=O)c1ccc(C)cc1 (stereo not drawn)", "target": "SLC6A4", "read-out": "ligand displacement", "method": "radioligand", "notes": "cell membranes", "Ki [µM]": 6.2}
{"Compound": "CNC(C)C(=O)c1ccc(F)cc1 (stereo not drawn)", "target": "SLC6A4", "read-out": "ligand displacement", "method": "radioligand", "notes": "cell membranes", "Ki [µM]": "> 100"}
{"Compound": "C=C[C@H]1C[N@@]2CC[C@H]1C[C@@H]2[C@@H](O)c1ccnc2ccccc12", "target": "SLC6A4 (Homo sapiens, UniProt P31645, S438T)", "read-out": "transporter uptake", "mode": "inhibitor", "method": "radiometric", "Ki [µM]": 5.4}
{"Compound": "CC(C(=O)c1ccc2c(c1)OCO2)N(C)C (stereo not drawn)", "target": "SLC6A4", "read-out": "ligand displacement", "method": "radioligand", "notes": "cell membranes", "Ki [µM]": "> 10"}
{"Compound": "CNC(C)C(=O)c1ccccc1 (stereo not drawn)", "target": "SLC6A4", "read-out": "ligand displacement", "method": "radioligand", "notes": "cell membranes", "Ki [µM]": "> 100"}
{"Compound": "CCN(CC)C(=O)[C@@H]1C=C2c3cccc4[nH]cc(c34)C[C@H]2N(C)C1", "target": "SLC6A4", "read-out": "ligand displacement", "method": "radioligand", "Ki [µM]": "> 10"}
{"Compound": "CCCC(NCC)C(=O)c1ccc2c(c1)OCO2 (stereo not drawn)", "target": "SLC6A4", "read-out": "ligand displacement", "method": "radioligand", "notes": "cell membranes", "Ki [µM]": 0.893}
{"Compound": "c1ccc([C@@H]2CCNC[C@H]2COc2ccc3c(c2)OCO3)cc1", "target": "SLC6A4", "read-out": "transporter uptake", "mode": "inhibitor", "method": "radiometric", "Ki [µM]": 0.00097}
{"Compound": "CCCC(C(=O)c1ccc2ccccc2c1)N1CCCC1 (stereo not drawn)", "target": "SLC6A4", "read-out": "ligand displacement", "method": "radioligand", "notes": "cell membranes", "Ki [µM]": 0.0149}
{"note": "Some of these lines once more:"}
{"Compound": "CCN(CC)C(=O)[C@@H]1C=C2c3cccc4[nH]cc(c34)C[C@H]2N(C)C1", "target": "SLC6A4", "read-out": "ligand displacement", "method": "radioligand", "Ki [µM]": "> 10"}
